Measurements gathered from unrelated publications.
Numbered parts are unrelated; each lists some results of a single study. Positions count from the first letter of the parent shown.

Sample 1 — technique: protein binding microarray; form: double-stranded DNA, one strand shown; medium: in vitro; concentration: not given; reference: not given; direction: higher = stronger binding
Target: Histone acetyltransferase KAT6A, winged helix 2, GST fusion (KAT6A, Homo sapiens, UniProt Q92794, residues 85-181)
Notes: 8-mer, flanks averaged, mean of 2 arrays, mostly near background
Residues (chain): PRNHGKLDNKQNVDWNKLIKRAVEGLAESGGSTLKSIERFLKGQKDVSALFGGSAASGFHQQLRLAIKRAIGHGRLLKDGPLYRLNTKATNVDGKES
Oligonucleotide	E-score
AAGATCGG	0.0297
ATCACAAA	0.0668
ATATTAAA	0.211
TCTCAAAA	0.043
ACTTCTCC	0.018
CACTTGAG	-0.0738
AGGCGGGG	0.232

Sample 2 — target: CCNB1, cyclin fold, Cln2 fusion (human); technique: yeast growth competition, sequencing; medium: yeast; notes: weak parent motif; reference: not given; direction: higher = stronger binding
Starting sequence: SLBP docking peptide (human); ARYKRKLLINDFG
Substitution	normalised enrichment score
ARYKRKLLIIDFG [N10I]	0.0952
AAYKRKLLINDFG [R2A]	0.44
ARYKRKLLINRFG [D11R]	0.388
ARYKRKLLIFDFG [N10F]	0.224

Sample 3 — technique: competition protein-binding microarray; form: double-stranded DNA, one strand shown; medium: in vitro; concentration: 2 µM; together with: Pho4 competitor, 0.05 µM; direction: higher = stronger binding; constant ends, left off below: … GTCTTGATTCGCTTGACGCTGCTG
Target: Centromere-binding protein 1, full length, His-tagged (CBF1, Saccharomyces cerevisiae, UniProt P17106, residues 1-351)
UniProt P17106, sequence (whole entry, looked up): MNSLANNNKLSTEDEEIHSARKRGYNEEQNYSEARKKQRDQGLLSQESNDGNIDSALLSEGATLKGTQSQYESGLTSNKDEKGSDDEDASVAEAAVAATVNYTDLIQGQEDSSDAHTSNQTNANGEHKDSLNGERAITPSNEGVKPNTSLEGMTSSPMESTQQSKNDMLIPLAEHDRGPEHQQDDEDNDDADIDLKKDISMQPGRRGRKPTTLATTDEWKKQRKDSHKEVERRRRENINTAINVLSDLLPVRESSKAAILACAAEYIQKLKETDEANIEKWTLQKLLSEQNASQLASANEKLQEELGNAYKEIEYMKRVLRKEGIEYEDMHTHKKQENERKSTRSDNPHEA
Notes: whole 60-bp probe, lowest competitor level
Oligonucleotide	fluorescence intensity
GTCTTGTCTCATTGCGCCGTGGGTGTCCCCACTTCA	82.7 a.u.
AAAGCGGTAATTTGTGTTGTGGGTGCAGATATCTAT	71.3 a.u.
AAAGCGGTAATTTGTCGTGTGGGTGCAGATATCTAT	66.5 a.u.
CGTCCTAGTGATTTTCACGTGGCCTCCATGAGGAAG	906 a.u.
CGGGGTTAAGTTTGCAGAGTGGGTGGCTTGCAGCAG	65 a.u.
GCACCCGGCCTGCGCTGCGTGCAATGACTGCGGGCG	48.3 a.u.

Further values, each from its own experiment
Molecule	target	test	system	conditions	scale	measurement	value
PhoQ, residues 284 288 289 292 302 303 NLMGRA	PhoP, residues 12 14 15 18 19 AQALL (Escherichia coli, UniProt P23836)	Sort-seq, refers to: YFP reporter	E. coli	PhoQ-PhoP variant library, together with: 10 µM Mg2+	reference: high Mg2+ state, higher = stronger signaling	fold induction	8.17

Excerpt of the above (sample 1):
Oligonucleotide	E-score
ACTTCTCC	0.018
